# Measured values collected from several papers.
# A part holds a random share of what one study measured. Changes are numbered by the printed parent chain.

# Set 1
# Target: ABI1, truncated, D143A, DHFR fusion (Arabidopsis thaliana)
# Technique: DHFR PCA, deep sequencing
# Sample: yeast
# Notes: methotrexate growth selection, single substitutions
# Added: (+)-ABA 0.39 µM
# Baseline: wild-type fitted maximum
# Direction: higher = stronger binding
# Parent: PYL1, truncated, DHFR fusion (Arabidopsis thaliana); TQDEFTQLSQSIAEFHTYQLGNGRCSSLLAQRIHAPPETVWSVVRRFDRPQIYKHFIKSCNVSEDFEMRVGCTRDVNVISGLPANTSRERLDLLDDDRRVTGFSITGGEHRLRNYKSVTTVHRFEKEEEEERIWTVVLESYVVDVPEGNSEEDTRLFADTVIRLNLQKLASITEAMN; partner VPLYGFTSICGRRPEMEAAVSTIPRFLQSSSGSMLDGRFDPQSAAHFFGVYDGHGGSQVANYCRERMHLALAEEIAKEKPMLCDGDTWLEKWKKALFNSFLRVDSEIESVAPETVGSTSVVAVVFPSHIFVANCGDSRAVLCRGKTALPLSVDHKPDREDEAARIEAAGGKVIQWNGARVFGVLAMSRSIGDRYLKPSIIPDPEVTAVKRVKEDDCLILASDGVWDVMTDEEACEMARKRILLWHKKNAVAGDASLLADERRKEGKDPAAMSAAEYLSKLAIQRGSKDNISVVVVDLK
Change,relative binding score
V62I,28.8%
A84H,59.6%
T154G,-20.5%
W41I,-10.5%
G23N,38.8%
R132D,85.2%
E64G,32.8%
D95C,-10.1%
V121Q,-3.54%
C25N,-10.6%
V43C,4.41%
P146Q,21.1%
T39H,15.9%
D95T,-3.4%
R123G,79.3%
G107V,-7.76%
F157L,9.51%

# Set 2
# Target: Interferon regulatory factor 7, full length, phosphomimetic (IRF7, Homo sapiens, UniProt Q92985, residues 1-503, S471D/S472D/S475D/S476D/S477D/S483D/S484D/S487D)
# Technique: protein-binding microarray
# Form: double-stranded DNA, one strand shown
# Sample: in vitro
# Tested at: 2200 nM top
# Notes: 60-bp whole probe
# Added: salmon DNA 0.4 mg/ml
# Baseline: random background probes
# Direction: higher = stronger binding
# Constant ends, left off below: GCCTAGCAC … GTCTTGATTCGCTTGACGCTGCTG
# Construct (chain): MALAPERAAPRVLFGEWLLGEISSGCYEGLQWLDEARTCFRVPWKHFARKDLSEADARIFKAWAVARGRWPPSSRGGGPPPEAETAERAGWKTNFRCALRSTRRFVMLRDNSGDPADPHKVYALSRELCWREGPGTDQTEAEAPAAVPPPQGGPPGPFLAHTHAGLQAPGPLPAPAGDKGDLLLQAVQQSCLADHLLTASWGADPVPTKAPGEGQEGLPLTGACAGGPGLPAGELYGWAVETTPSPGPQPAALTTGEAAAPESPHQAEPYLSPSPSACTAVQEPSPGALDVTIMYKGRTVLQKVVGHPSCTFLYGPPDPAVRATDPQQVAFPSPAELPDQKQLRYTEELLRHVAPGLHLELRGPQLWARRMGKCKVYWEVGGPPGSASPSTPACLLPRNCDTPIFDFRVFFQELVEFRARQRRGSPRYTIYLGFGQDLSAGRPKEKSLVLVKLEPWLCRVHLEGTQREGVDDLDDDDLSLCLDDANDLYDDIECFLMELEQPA
Oligonucleotide,fitted relative affinity [z-score]
TTAGGTATCGGGAGTGGGTTAGTGCTA,-0.366
TAAGGTCTCGGACTGGGTTAGTGCTAG,-0.347
TAAGAACTGGGGTATCGATTAGTGCTA,-0.17
GACGATTTCAGACTGGGGACGTGCTAG,0.569
TTAGATAACGGGTATCGATTAGTGCTA,-0.234
GACGGTATCGACTATCGGAACGTGCTA,0.0431
TTAGATTTCACTATCGATTAGTGCTAG,1.47
TTACATCTCAGTTTCGATTAGTGCTAG,6.58
TGCTCTCCGGGGTCTGTGAGGGTGCTA,-0.184
TTAAGTTTCGACACTGGGTTAGTGCTA,2.95
GACGATATCAGTCGCGAGACGTGCTAG,0.0016
TTAGAGATCAGACTGGATTAGTGCTAG,-0.941
GACGGTCTGCTTTTCCTGACGTGCTAG,0.852
TTAGGACTGCTAATCCTTTAGTGCTAG,-0.145
TTAGGTATCGACTAACGGTTAGTGCTA,-0.327
GACGGACTGGACACTGGGGAAGTGCTA,-1
TTAGGACTAGGTTTCGGTTAGTGCTAG,4.96
TTCGGTCTCGGTATCGGTTAGTGCTAG,1.62
AAGGTAGCACTTCACAGCAAGTGCTAG,-0.549
CTAGGTATCGACACTGGGTTAGTGCTA,-0.183
TTGGGTTTCCTTTTCCTTTAGTGCTAG,5.81
TTAGGTATCGACACTGGCTTAGTGCTA,-0.217

# Set 3
# Target: Ras GTPase-activating protein-binding protein 1, RRM domain (G3BP1, Homo sapiens, UniProt Q13283)
# Chain of UniProt Q13283 (whole entry, looked up): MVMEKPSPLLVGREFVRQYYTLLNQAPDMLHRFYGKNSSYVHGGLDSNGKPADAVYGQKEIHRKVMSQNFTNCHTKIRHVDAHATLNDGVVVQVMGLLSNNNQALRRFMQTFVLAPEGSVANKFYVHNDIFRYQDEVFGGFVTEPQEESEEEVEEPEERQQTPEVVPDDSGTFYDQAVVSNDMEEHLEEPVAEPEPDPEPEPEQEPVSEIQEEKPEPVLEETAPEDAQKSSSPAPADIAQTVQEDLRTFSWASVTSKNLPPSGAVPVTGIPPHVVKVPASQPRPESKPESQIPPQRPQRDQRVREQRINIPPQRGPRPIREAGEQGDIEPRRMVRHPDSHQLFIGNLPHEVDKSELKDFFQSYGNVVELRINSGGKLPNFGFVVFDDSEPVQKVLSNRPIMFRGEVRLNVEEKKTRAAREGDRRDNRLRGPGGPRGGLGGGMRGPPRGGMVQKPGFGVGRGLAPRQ
# Technique: RNA Bind-n-Seq
# Form: RNA
# Sample: in vitro
# Tested at: 1 µM
# Notes: whole 134-nt RNA, ends assumed
# Added: 150 mM KCl
# Baseline: input library
# Direction: higher = stronger binding
# Constant ends, left off below: GGGAGUUCUACAGUCCGACGAUC … UGGAAUUCUCGGGUGUCAAGG
Oligonucleotide,log2 enrichment
CCUCAAGUCCUGUGCUACACAUCGUAUGUACCGAAUCGGUUGGGGUUGGUUGGAAAGUAUUAUGUUACGCCGUUCGGAUCUGCACUUCCA,-0.286
GUCCUGUGCUACACAUCGUAUGUACCGAAUCAAACCCCCAAACCCAAACCCCCCCAAAAAAGUAUUAUGUUACGCCGUUCGGAUCUGCAC,0.0207
UCCUGUGCUACACAUCGUAUGUACCGAAUCGGUUUUUUGGUUUUUUGGGGUUUUUUGGGGAAAGUAUUAUGUUACGCCGUUCGGAUCUGC,-0.253
GCAGGAAGUAAAAACAAAUGGAAAUGCUUCGGAUUGUGGCAGGGGUGGGGGUUGCUAAGGAAAGGGUGGGAUGGGAGUGGGUAAAGAGUU,1.03
UGGGAGGUGGAUUUUGUUUAUUUUUUUAGCUCAUUUCCAGGGGUGGGAAUUUUUUUUUAAUUUGUGUCAUGAAUAAAGUUGUUUUUGAAA,1.7
ACCAUGCAGGUUGGCAUCUUUGGGAAGUGGGGCAAGGGGGGGAUAGGGAGGGGGGUAACACUUUGGGAACAGGUGGUCCCAGGUCGUUUC,-0.493
CAAGUCCUGUGCUACACAUCGUAUGUACCGAAUCGGAAAAGGAAAAGGAAAAGGGGAAAGUAUUAUGUUACGCCGUUCGGAUCUGCACUU,-0.167
UGGACCUGGUGGCAUGCGGGGAGGAAGAGGUGGCCUCAUGGAUCGUGGUGGUCCCGGUGGAAUGUUCAGAGGUGGCCGUGGUGGAGACAG,0.555
UGGCCCUGGUGGCAUGCGGGGAGGAAGAGGUGGCCUCAUGGAUCGUGGUGGUCCCGGUGGAAUGUUCAGAGGUGGCCGUGGUGGAGACAA,1.19
AAGUCCUGUGCUACACAUCGUAUGUACCGAAUCGGGAAAGGGAGGGUUUUUUUGGGAAAGUAUUAUGUUACGCCGUUCGGAUCUGCACUU,0.743
CUCAAGUCCUGUGCUACACAUCGUAUGUACCGAAUCGGGGUUGGUUGGGUUGGGAAAGUAUUAUGUUACGCCGUUCGGAUCUGCACUUCC,0.0356
AAGUCCUGUGCUACACAUCGUAUGUACCGAAUCGGUUUUGGGUUUUGGGUUUUGGGAAAGUAUUAUGUUACGCCGUUCGGAUCUGCACUU,-0.234
UCCUCAAGUCCUGUGCUACACAUCGUAUGUACCGAAUCGGUUGGUUGGUUGGAAAGUAUUAUGUUACGCCGUUCGGAUCUGCACUUCCAG,-0.128
UGGGAGGUGGAUUUUGUUUAUUUUUUUAGCUCAUUUCCAGGGGUGGGAAUUUUUUUUUAAUAUGUGUCAUUAAUAAAGUUGUUUUUGAAA,1.65

# Set 4
# Target: RNA binding protein fox-1 homolog 2, RRM domain, GST-SBP tag (RBFOX2, Homo sapiens, UniProt O43251-10, residues 100-194)
# Technique: RNA Bind-n-Seq
# Form: RNA
# Sample: in vitro
# Tested at: 365 nM
# Notes: natural RNA segment, single round, ends assumed
# Baseline: no-protein control
# Direction: higher = stronger binding
# Constant ends, left off below: GGGAGUUCUACAGUCCGACGAUC … UGGAAUUCUCGGGUGCCAA
# Construct (chain): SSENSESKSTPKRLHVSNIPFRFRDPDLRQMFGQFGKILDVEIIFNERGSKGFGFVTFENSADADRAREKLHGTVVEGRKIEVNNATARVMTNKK
Oligonucleotide,RBNS enrichment (R)
GCUGUUUCUUUUAAAUCCUCUGUGCACAGGGCUCUGGCCUUUAGUAAACUGUUUUUCUGUCUUACGUCAUGCUGACUGGGUGCUAGGGGCUGAUUACAAAGGGGAAGAGU,0.621
UUUCACUGUUGAUUUUACUUUAAGAUGUAGCCAGAGAAAGUUUUGUUUUUAAGGCAUUUUAAAGCUGUAGCAGGCGUAUGCUUCAUUUUCUUCCAAAGAGGCAAAAGCAG,0.513
AGCUGCUCCUGAGCAUGAAGGAACCCACCCUAAGCCAGUCCUGACAGCUGACAUGCCUCACUCAGAGAGGGGAAAGGCACUGGGCAGCCUUGAAGGAAGCCCUUCUCUCC,1.37
CAUGCAUCCUUCGUCUGUCUCAUCAGCACUGGCGUCAUUCCUUACAGUUUACAGAACUCAUGUAACUUGUAGCUAUAAACAUUUUGUGCCAUUAAAGCUCUCACAAAACC,0.935
AAAGAGUAGGACAGAAGAGCGGCGCACACCUGCAGAUGUUCUGCAAGCCUUGCGGUCCAGAUGAGCAUGCCGGAAGGUUUCCUCAUGUAGCGUUCCCACUGGAGCUGUGU,0.346
AGUCACCUUGACAGUUCUUUGCACACAAGUUUUACACCUCUCUGGAUUCGAAGUUUGUAUUGUAUUCAUAGUUAAAGGGAAUCGGGUACUUUGCUUGUUGAAUAAUGCAC,1.43
UGGGGCUCAGCCACAGCCUGACACAGUGCUCGACCUUGAUAGCAUGGGGCCCCUGGCCCAGAGUUGCUGUGCCGUGUCCAAGGGCCGUGCCCUUGCCCUUGGAGCUGCCG,15.7
UUUCAAUAGGCAUAUAUUAACAGGCUGCUUAUUUUGGCGGAGGUUACAUAUGGAUGAAAAUGAAUCUUAGUCACUGAAUAUUCAUAUACAUUUCCCCCAAAACCUUAGAC,0.297
UUAGAACGAGGCACAGAUCGCACAUUUUCUACUUGAGGAUCUUUUUUAGUGGUGAAUACCAAGAUUCAGUGCAUCCUUUAAAAGAGCGUUCUUGUCCCUGGCGCUGGCUA,0.332
GGGGUUUUCUAGAUAUACAAUCAUGUCGUCUGCAAACGGACAAUUUGACUUCCUCUUUUCCUAAUUGAAUACCCUUUAUUUCCUUCUCCUGCCUAAUUGCCCUGGCCAGA,0.649
UGAAGCUUGGAGAAAACUCUGCAUUCCCAUGAGGGCAAAGGCAGCUGCCCUCCCUGACCCUAUAGCCCCAGGCCUCAUGGGGGGUAUGUGGGGAAGGGAUGGGGUAUCCC,0.818
CUAGUAUCAGGGUGGGUGAUAGAACCCGAAAUGGAAGAGGACGGGAAAGUGCCUGGGCUGUGCUUGUGACCGGCAGUACAGUGCCAUCCUGGAGGUGACUGGAGUAGCUG,1.32

# Set 5
# Target: CCNA1, cyclin fold, Cln2 fusion (human)
# Technique: yeast growth competition, sequencing
# Sample: yeast
# Notes: weak parent motif
# Baseline: not given
# Direction: higher = stronger binding
# Parent: FOXM1 docking peptide (human); PHLARPIKVESPP; partner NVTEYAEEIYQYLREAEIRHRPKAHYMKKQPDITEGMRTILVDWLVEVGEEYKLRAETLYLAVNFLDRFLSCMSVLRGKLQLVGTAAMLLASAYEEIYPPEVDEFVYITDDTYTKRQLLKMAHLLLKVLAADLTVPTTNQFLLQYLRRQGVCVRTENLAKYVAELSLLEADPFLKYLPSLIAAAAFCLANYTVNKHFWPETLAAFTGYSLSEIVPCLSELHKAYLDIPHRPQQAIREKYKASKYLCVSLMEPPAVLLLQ
Change,normalised enrichment score
PALARPIKVESPP [H2A],-0.199
PHLARPIKVESPA [P13A],-0.00681
PHLARPIKVASPP [E10A],-0.498
PHLARPIKVESAP [P12A],-0.615
PHLARPAKVESPP [I7A],-0.283
PHLAAPIKVESPP [R5A],-0.157

# Set 6
# Target: NFE2L1, bZIP domain (human)
# Technique: DHFR protein complementation
# Sample: yeast
# Notes: single substitutions, most at no-binding floor
# Baseline: wild-type JUN-FOS pair
# Direction: higher = stronger binding
# Parent: JUN, bZIP domain (human); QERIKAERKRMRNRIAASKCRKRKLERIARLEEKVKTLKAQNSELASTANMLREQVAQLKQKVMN; partner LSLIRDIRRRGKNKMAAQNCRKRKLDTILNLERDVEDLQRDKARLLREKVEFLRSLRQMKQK
Change,binding fitness
S43K,-1.49 natural log
S47K,-1.51 natural log
I28G,-1.44 natural log
K36E,-1.3 natural log
A40W,-1.46 natural log
S47T,-1.43 natural log
L45T,-1.53 natural log
Q58S,-1.46 natural log
A29K,-1.12 natural log
E44I,-1.56 natural log
M51T,-1.33 natural log
A57P,-1.43 natural log
S47V,-1.21 natural log
E33R,-1.43 natural log
L45Y,-1.53 natural log
K34S,-1.39 natural log
E32P,-1.56 natural log

# Repeated from above (set 6):
Change,binding fitness
E33R,-1.43 natural log
E32P,-1.56 natural log
M51T,-1.33 natural log
S47V,-1.21 natural log
S47T,-1.43 natural log
I28G,-1.44 natural log
A29K,-1.12 natural log
L45T,-1.53 natural log
L45Y,-1.53 natural log
Q58S,-1.46 natural log
E44I,-1.56 natural log
K36E,-1.3 natural log
